Measurements collected from several papers.
Each numbered part is a random draw from the data of one study; scales do not carry over between parts.

Block 1
Target: Ras GTPase-activating protein-binding protein 1, full length (G3BP1, Homo sapiens, UniProt Q13283)
Chain of UniProt Q13283 (whole entry, looked up): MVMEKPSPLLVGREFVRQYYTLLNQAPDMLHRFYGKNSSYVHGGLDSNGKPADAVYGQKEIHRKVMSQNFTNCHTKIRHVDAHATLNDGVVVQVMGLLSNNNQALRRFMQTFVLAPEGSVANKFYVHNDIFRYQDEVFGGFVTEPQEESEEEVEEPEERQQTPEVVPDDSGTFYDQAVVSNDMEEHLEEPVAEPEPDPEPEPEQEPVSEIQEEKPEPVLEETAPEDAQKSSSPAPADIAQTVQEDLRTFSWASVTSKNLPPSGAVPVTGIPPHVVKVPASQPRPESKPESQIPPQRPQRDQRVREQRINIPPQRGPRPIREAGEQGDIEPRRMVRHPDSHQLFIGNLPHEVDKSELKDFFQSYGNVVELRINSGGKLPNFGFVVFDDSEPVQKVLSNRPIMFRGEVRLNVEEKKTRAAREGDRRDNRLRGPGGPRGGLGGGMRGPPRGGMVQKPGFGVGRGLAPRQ
Method: RNA Bind-n-Seq
Form: RNA
Matrix: in vitro
Concentration: 200 nM
Notes: whole 134-nt RNA, ends assumed
With: 150 mM KCl
Relative to: input library
Direction: higher = stronger binding
Constant ends, left off below: GGGAGUUCUACAGUCCGACGAUC … UGGAAUUCUCGGGUGUCAAGG
Oligonucleotide	log2 enrichment
UGGGAGGUGGAUUUUGUUUAUUUUUUUAGCUCAUUUCUAGGGGUGGGAAUUUUUUUUUAAUAUGUGUCAUGAAUAAAGUUGUUUUUGAAA	-0.0758
UGGCCCUGGUGGCAUGCGGGGAGGAAGAGGUGGCCUCAUGGAUCGUGGUGGUCCUGGUGGAAUGUUCAGAGGUGGCCGUGGUGGAGACAG	0.0677
CACAGACAACACGCACCCACACAGACACAGAGGGAAGGGGUUGGGAUGGGGACAGGGUGCACAGCAGGGAAAGGUAGGACCCCAGCCCCU	1.75
UCCUGUGCUACACAUCGUAUGUACCGAAUCAAAUUUUUAAAUUUUUAAACCCCCCCAAAAAAGUAUUAUGUUACGCCGUUCGGAUCUGCA	0.127
UCCUGUGCUACACAUCGUAUGUACCGAAUCGGAAAAAAGGAAAAAAGGGGAAAAAAGGGAAAGUAUUAUGUUACGCCGUUCGGAUCUGCA	-0.682
CCUGUGCUACACAUCGUAUGUACCGAAUCGGGUUUUUGGGAAAAAAAGGGAAAAAAAGGGAAAGUAUUAUGUUACGCCGUUCGGAUCUGC	-0.833
UGGGGUAGACCAGUUCCAUGGCACUGAAUAUGUGUGCUGCCCUCAGACAAAGAUUAUUGGAUCUGUGUCAAAAGAAGAGGAAGAGGAAGA	-1.26
AGUCCUGUGCUACACAUCGUAUGUACCGAAUCGGGAAAGGGAAAAAGGGUUUUUGGGAAAGUAUUAUGUUACGCCGUUCGGAUCUGCACU	-0.234
UACUCUCUCGGGGCUGGAAGCUUCCUGACUGAAGAUCUCUCUGCACUUGGGGUUCUUUCUAGAACAUUUUCUAGUCCCCCAACACCCUUU	1.18
UAACUUUAGAGGAGGAUCUGAUGUAUAUGGCAGUGGACGUGGAUUUGGGGAUGGCUAUAAUGGGUAUGGAGGAGGACCUGGAGGUGGCAA	0.232
UCUAGAUACAGAUGCACGAUUUGGCCAUGGAUCCGACUACUCUCGCCAACAGAACAGAUUUAAUGACUUUGAUCACCGAGAGAGGGGCAG	0.265
UCCUCAAGUCCUGUGCUACACAUCGUAUGUACCGAAUCGGUGGUGGUUUGGAAAGUAUUAUGUUACGCCGUUCGGAUCUGCACUUCCAGC	-0.517
UGCCUGCUCCGGGCCCCGUGCUGGCGCCUACGCACCUGCAGACAGAGCUGGUGCUGAGGUGCCAGAAGGAGACCGACUGUGACCUCUGUC	-1.16
CCUCAAGUCCUGUGCUACACAUCGUAUGUACCGAAUCGGAAAGGAGGUUUGGAAAGUAUUAUGUUACGCCGUUCGGAUCUGCACUUCCAG	-0.296

Block 2
Target: RNA binding protein fox-1 homolog 2, RRM domain, GST-SBP tag (RBFOX2, Homo sapiens, UniProt O43251-10, residues 100-194)
Method: RNA Bind-n-Seq
Form: RNA
Matrix: in vitro
Concentration: 365 nM
Notes: natural RNA segment, single round, ends assumed
Relative to: no-protein control
Direction: higher = stronger binding
Constant ends, left off below: GGGAGUUCUACAGUCCGACGAUC … UGGAAUUCUCGGGUGCCAA
Construct (chain): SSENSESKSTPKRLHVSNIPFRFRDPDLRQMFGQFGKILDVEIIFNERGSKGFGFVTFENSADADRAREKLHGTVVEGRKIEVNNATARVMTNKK
Oligonucleotide	RBNS enrichment (R)
CAGUGUUAAUAAUAGUGUGUCAAGAUUGCAAAGUCGACAUACUCAUUUGGUUUAAGCAGGAAUCCUAGAAGCAAAUGGAUGGGGAUAAGAAUAGGUCAUUUUCUAUUCAC	0.45
AUGCCCUGGACGGCACUCUGUUCCUUAAAGUCCAGUUCCACCCUGACGUCCACAGAGGCAGCACGGAGUGGCGAAACUCGGUUCCAGCCUGUCGUCGGCAGUGAGCGGGU	0.375
CUGUCCCUCUGCAGAGGGAUACCUUCCAAUAGUAAAUUAUCUGGUUCCUCACUGAAACAAGUUAUUUUUGCUUCAUAUAGUCAGAGUCAGACUGACAUGAUAAAAUAUCA	0.256
GCAGGUUAUUGGAAUAGAAUCCAAAAUCAUUUUCCAGCCAAAACAUCCAUUCGAAAUCUGUAUCCCAUUUGAUCCUUAUGUAAGUCUCAUGAGUAAACAGAACAGAAUUU	0.324
UCUGAUCCUGCUACUGGAGCUUAAAAUAACAAGUAAAGAAAAGUGUUAGAAACAAAGCUAAAAUUUUAACAUGAUUAAUAAUAGAGAAGUUGGGUUUGGUUCUGUUGUUA	0.734
GAAAACCUGAUGAGGGCAAACCAGUUAAACCUAACACCCUGCCUUGUCUGGGCUCAUCACCUCUCCCUAUCCCAGACUAACUUUACUGUGAAAUCCUACCACAUUCCAUG	0.476
CAGAUUGACAGGGACUUUGCUGGUGUAGUCUUUUUAUAGGUUUUAUAAACCACUUGAGCCUAUAUCAGUCGUUUUAGUGUCUGACCUAAUAUUUGGAGCUAUCAGUGCUU	0.298
UACCAUGGAUUUGAAAUGAACUCAUCCUUGCUGUGAGCAUCCAGGAGCCCUUGAGAAGUUUAUCUAUGACUAUGAAACUGGCAACGUCACCCCAGAAUUACGGUCAGCCU	0.735
GCCUCGACAUUUCAAGUUGCGGUGUGUGACGGAGGUGGCUGCCGAACGAGAAGAGAUGCCACAGUGUAUCGUGUCUCUAGUUGUAUUGUAUACCUGCUUAACAUCUGCGA	0.257
CUGCAAUGCCUUUGGGAAGCUCAGGGGAAUGCUCCCCAAGCUUGUUUCUGACACUAGAAUGCAACAGAUUGGAAACUUUUUGUGUAAAAUGAAAAAAACAAAGUGCUGGU	1.04
AAGUUUAAGAUUUGCCAUAUGACGACGUGGUGACCGGGAAGUCCAGAGUCGGCAAGCAGGUGCCAGAUUUUCUAUCCCAUCAGCCAGUGCUUCACCAGGUGCAGGCUGCU	0.541
AAUAGAAGCAUAUAAAACAUUGUAUGUAAAUUGCAUCUUCAUACUAGCAAACAAGUUAACAAAUGAUAAUAAAUGCAAUUCAGUUUUGGAUGUUGGUCCACAUUGUCAAG	0.526

Block 3
Target: RING finger protein unkempt homolog, zinc fingers 1-6, GST-SBP tag (UNK, Homo sapiens, UniProt Q9C0B0, residues 30-357)
Chain of UniProt Q9C0B0 (30-357, looked up): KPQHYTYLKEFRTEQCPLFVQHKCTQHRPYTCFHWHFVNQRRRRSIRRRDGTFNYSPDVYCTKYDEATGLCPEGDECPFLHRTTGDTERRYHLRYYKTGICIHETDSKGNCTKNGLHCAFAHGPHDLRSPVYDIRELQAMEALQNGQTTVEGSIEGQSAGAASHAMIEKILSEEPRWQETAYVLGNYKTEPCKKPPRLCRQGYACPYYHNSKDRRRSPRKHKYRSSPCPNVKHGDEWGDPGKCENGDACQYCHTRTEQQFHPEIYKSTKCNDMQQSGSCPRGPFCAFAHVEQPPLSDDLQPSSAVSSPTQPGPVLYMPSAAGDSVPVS
Method: RNA Bind-n-Seq
Form: RNA
Matrix: in vitro
Concentration: not given
Notes: RNA with constant flanks, human-mouse chimeric sites, ends assumed
Relative to: input RNA pool
Direction: higher = stronger binding
Constant ends, left off below: GGGAGUUCUACAGUCCGACGAUC … CAACAGAGGAUUGAGCAUCA
Oligonucleotide	bound/input enrichment [ratio]
UACUACUGAAUCUGUGAUAUUGGCAAUUAUUAUUAUGGACAGGGUCAUCCCAUGAAGCCUCAUAGAAUCCGGAUGACUCAUAACUUGCUGCUAAAUUAUGGUUUAUACCGAAAAAUGGAA	0.236
ACCUCCCCCUCCCGCCUCACCCCACCCAAGAAAGAAAGAAAGUUUUUGGCGUUUCUUUUCCUUCCCCAUACAAAGUGAUUACAGUUUCCCCCGCAAGGGUCUAUCGAAGGGCUUGACGGA	0.642
GUCAACAGUUGUCUCAACCCCAUCCUCUACGCCUUCCUGGAUGAGAACUUCAAGGCCUGCUUCCGCAAGUUCUGCUGUGCUUCUGCCCUGCGCCGGGACGUGCAGGUGUCUGACCGCGUG	0.368
UAUAUCACCAAUGUCCUACAAAAUCCUGAUUUGGCUCUGAGAAUGGCUGUGCGGAACAACUUAGCUGGUGCUGAAGAACUCUUUGCCCGGAAAUUUAAUGCUCUCUUUGCCCAGGGAAAC	0.471
UGGCGCCUGCGCUCCCCACUCGUGUUUUUAAGUGUAUAAGAUGUAUAUACAUGUAUUUACAAUUGAGCUUUUGUUACAUAAUGCUGAAAUGCUACUGGAGAUUAUGAAAAAUGUUUCAAU	0.109
AACAGAUUGUCUUUAAGCAUUCCAAGCGAGAAUGCUGAAAUAGUCAUUGUUGCCCAUGUGCCUUCUGUAAUAGAUGGAAUGCUGUUCCAUGUUACAUCUUUCCUUCACUCCAGAAUUGUU	0.151
GUGACUGACAUUAAAAUUUACCCUCAGCAAAGAAGUGCAGUAGUCACCAUAAUUCCAUCUGUGGUGAGUGCCAGUCAGAUUGUGGAGCUGGUCCCAGACCUCAGUUUAGACAUGGGAACU	0.316
UGUGCAUAUGAUGCUUGAGAUGGUUUUUGCAAAAGCAGAAAUCGCUGCAAGGUCAUUCUAAUAGAGAAAAGUGGUAUUUUAAACCUUUGAAAUAAAUGGAUGUAACUGUACCUUGGUACA	0.369
GUGACUGGUGUUAAGAUUUCCCCUCAGCAAAGAAGUGUAGCAGUGACCAUAAUUCCAUCUGUGGUGAGUGCCAGUCAGAUAAAAGAGCUGGUCCCAGACCUCAGUUUAGACAUGGGAACU	0.312
CGGAGCCCUCCUCUCCCCCAGGCCCGAGAUAUAACCCACCAGUGCCUUUUGUCUUCCCGUUAGCUUUGUCAAUCACGCCUGUCCUCUCACGCCCACACCAAGUGCCCAAAGUGGGGAGGG	20.5
AUUGUUGAAGCUAACCCACUCCUAGAAGCAUUUGGAAAUGCAAAGACUGUUCGCAACAAUAAUAGCAGUCGAUUUGGAAAAUUUGUAGAAAUUCAUUUCAAUGAAAAGAGUUCGGUUGUU	0.254

Block 4
Target: Interferon regulatory factor 3, full length, phosphomimetic (IRF3, Homo sapiens, UniProt Q14653, residues 1-427, S386D/S396D/S398D/S402D/T404D/S405D)
Method: protein-binding microarray
Form: double-stranded DNA, one strand shown
Matrix: in vitro
Concentration: 2540 nM top
Notes: 60-bp whole probe
With: salmon DNA 0.4 mg/ml
Relative to: random background probes
Direction: higher = stronger binding
Constant ends, left off below: GCCTAGCAC … GTCTTGATTCGCTTGACGCTGCTG
Residues (chain): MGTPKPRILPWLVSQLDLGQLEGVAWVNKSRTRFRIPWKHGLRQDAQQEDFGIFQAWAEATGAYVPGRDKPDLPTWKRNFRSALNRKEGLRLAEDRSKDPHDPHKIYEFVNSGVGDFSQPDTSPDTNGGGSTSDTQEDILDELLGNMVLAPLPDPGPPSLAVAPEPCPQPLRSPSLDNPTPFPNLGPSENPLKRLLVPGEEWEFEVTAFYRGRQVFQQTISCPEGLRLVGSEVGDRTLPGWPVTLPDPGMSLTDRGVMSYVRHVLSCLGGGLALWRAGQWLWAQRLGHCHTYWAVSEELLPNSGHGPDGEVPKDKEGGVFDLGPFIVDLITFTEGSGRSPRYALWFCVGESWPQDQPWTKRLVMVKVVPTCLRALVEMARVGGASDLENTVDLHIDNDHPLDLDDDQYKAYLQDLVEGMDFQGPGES
Oligonucleotide	fitted relative affinity
ACTTTTTTTAATTGAGAAGCGTGCTAG	1.27 z-score
GACGGTTTCCTTTTTCTGACGTGCTAG	10.2 z-score
TCACAGCTATTTTTAGGACTGTGCTAG	0.00751 z-score
TTACGACTGGGACTGGGTTAGTGCTAG	-0.833 z-score
TTAGATCTCCGTCTCGATTAGTGCTAG	1.09 z-score
GATGTTTTTCATTTTTTTTCGTGCTAG	1.53 z-score
GACGGTTTCGGTTTCGCGACGTGCTAG	9.86 z-score
AATTTTTTGTATTTTTAGTGGTGCTAG	0.684 z-score
TTAGGACTGGACAATCGGTTAGTGCTA	-0.532 z-score
GACGGTTTCCTTCTCCTGATGTGCTAG	9.99 z-score
TCAATTTTGTTCATCATACTGTGCTAG	0.543 z-score
TCAATTATAACACTCTTACTGTGCTAG	0.4 z-score
GACGGTTTACTTATCCTGACGTGCTAG	2.15 z-score

Single results of other studies
Substance	target	test	system	setting	how to read	endpoint	result
PhoQ, residues 284 288 289 292 302 303 HSSMNL	PhoP, residues 12 14 15 18 19 LHATL (Escherichia coli, UniProt P23836)	Sort-seq, refers to: YFP reporter	E. coli	PhoQ-PhoP variant library, with: 10 µM Mg2+	relative to: high Mg2+ state, higher = stronger signaling	fold induction	28

Repeated from above (block 3):
Oligonucleotide	bound/input enrichment [ratio]
AACAGAUUGUCUUUAAGCAUUCCAAGCGAGAAUGCUGAAAUAGUCAUUGUUGCCCAUGUGCCUUCUGUAAUAGAUGGAAUGCUGUUCCAUGUUACAUCUUUCCUUCACUCCAGAAUUGUU	0.151
GUGACUGACAUUAAAAUUUACCCUCAGCAAAGAAGUGCAGUAGUCACCAUAAUUCCAUCUGUGGUGAGUGCCAGUCAGAUUGUGGAGCUGGUCCCAGACCUCAGUUUAGACAUGGGAACU	0.316
UGUGCAUAUGAUGCUUGAGAUGGUUUUUGCAAAAGCAGAAAUCGCUGCAAGGUCAUUCUAAUAGAGAAAAGUGGUAUUUUAAACCUUUGAAAUAAAUGGAUGUAACUGUACCUUGGUACA	0.369
GUGACUGGUGUUAAGAUUUCCCCUCAGCAAAGAAGUGUAGCAGUGACCAUAAUUCCAUCUGUGGUGAGUGCCAGUCAGAUAAAAGAGCUGGUCCCAGACCUCAGUUUAGACAUGGGAACU	0.312
